Measured values of several laboratories.
A part holds a random share of what one study measured. Values joined by “and” are separate records of one study, mostly repeats; a detail may differ.
Sequence of UniProt O75676 (whole entry, looked up): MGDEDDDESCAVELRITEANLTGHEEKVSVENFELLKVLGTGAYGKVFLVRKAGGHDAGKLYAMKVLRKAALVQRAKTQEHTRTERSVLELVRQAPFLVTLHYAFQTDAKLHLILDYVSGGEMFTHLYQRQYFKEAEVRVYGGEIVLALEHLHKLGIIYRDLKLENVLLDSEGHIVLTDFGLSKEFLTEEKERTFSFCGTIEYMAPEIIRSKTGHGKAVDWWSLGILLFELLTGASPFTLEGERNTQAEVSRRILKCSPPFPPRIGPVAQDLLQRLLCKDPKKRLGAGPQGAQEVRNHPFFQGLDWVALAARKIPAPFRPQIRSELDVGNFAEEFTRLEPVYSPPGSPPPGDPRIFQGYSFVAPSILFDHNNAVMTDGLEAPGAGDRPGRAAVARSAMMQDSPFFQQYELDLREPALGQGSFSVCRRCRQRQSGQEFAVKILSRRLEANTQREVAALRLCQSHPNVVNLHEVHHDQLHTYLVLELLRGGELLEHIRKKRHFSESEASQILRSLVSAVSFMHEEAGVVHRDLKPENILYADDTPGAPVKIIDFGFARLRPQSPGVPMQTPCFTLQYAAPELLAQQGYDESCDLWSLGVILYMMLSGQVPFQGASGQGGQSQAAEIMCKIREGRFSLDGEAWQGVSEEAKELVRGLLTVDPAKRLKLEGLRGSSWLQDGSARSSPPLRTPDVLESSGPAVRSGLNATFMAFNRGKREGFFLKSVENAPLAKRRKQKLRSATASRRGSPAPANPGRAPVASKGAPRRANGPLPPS
Sequence of UniProt Q08881 (whole entry, looked up): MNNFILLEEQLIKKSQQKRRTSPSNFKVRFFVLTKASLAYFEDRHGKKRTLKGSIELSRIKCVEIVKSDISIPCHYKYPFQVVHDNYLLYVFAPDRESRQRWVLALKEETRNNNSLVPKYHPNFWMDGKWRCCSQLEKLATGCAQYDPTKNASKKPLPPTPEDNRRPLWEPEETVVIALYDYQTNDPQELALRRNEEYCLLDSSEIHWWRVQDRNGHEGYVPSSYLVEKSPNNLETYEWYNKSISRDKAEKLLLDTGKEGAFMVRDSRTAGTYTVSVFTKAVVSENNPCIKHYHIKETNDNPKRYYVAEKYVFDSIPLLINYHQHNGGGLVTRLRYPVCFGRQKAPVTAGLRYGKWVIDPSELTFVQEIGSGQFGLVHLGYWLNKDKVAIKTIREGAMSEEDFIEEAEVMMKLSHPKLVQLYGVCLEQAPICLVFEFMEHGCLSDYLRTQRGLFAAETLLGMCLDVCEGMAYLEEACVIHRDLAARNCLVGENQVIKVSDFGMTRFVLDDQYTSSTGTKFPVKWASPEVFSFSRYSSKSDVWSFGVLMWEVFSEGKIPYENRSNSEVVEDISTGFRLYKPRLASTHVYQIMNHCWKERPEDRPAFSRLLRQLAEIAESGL
Sequence of UniProt P00519 (whole entry, unmodified, looked up): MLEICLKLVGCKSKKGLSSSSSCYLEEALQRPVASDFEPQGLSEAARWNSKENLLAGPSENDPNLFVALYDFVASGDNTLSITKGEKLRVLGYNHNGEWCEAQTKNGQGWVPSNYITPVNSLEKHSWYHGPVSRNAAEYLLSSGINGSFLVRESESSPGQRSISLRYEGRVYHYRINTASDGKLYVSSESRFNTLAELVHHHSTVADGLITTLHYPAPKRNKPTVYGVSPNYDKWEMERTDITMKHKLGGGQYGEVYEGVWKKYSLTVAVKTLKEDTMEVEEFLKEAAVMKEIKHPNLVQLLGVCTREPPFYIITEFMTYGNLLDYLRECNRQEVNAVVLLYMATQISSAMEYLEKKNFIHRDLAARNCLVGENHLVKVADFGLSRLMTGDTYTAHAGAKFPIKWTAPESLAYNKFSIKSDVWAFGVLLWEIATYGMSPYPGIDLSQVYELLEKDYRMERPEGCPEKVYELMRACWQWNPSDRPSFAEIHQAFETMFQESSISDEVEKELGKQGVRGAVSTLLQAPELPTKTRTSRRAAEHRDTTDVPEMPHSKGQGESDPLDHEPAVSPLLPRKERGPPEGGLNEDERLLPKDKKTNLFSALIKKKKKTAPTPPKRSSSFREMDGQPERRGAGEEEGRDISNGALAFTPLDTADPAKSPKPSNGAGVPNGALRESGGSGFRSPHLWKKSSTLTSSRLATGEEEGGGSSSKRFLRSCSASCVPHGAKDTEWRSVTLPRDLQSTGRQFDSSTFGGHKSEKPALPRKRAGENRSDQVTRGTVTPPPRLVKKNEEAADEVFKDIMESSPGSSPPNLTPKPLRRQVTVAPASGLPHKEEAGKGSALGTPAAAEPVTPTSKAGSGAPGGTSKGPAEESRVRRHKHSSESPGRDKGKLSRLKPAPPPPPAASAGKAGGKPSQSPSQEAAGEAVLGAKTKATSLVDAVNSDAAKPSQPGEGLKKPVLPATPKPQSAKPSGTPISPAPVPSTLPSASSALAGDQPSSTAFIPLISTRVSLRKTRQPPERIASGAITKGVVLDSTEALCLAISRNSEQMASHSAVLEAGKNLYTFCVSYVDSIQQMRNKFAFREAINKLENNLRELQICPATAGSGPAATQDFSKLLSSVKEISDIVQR
Sequence of UniProt Q04771 (whole entry, looked up): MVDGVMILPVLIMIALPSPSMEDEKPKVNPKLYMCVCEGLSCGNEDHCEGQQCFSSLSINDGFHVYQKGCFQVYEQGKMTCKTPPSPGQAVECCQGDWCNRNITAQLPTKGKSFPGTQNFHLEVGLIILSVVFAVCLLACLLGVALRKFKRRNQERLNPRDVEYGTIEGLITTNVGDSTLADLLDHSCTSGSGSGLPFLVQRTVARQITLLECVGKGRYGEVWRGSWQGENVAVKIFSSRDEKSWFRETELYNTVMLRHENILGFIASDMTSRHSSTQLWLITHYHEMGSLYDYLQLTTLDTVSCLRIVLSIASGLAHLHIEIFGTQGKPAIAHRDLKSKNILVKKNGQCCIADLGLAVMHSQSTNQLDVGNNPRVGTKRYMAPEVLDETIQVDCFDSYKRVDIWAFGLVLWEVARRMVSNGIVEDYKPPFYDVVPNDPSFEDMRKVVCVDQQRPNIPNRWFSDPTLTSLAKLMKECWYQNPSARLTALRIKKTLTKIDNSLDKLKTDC
Sequence of UniProt Q02156 (whole entry, looked up): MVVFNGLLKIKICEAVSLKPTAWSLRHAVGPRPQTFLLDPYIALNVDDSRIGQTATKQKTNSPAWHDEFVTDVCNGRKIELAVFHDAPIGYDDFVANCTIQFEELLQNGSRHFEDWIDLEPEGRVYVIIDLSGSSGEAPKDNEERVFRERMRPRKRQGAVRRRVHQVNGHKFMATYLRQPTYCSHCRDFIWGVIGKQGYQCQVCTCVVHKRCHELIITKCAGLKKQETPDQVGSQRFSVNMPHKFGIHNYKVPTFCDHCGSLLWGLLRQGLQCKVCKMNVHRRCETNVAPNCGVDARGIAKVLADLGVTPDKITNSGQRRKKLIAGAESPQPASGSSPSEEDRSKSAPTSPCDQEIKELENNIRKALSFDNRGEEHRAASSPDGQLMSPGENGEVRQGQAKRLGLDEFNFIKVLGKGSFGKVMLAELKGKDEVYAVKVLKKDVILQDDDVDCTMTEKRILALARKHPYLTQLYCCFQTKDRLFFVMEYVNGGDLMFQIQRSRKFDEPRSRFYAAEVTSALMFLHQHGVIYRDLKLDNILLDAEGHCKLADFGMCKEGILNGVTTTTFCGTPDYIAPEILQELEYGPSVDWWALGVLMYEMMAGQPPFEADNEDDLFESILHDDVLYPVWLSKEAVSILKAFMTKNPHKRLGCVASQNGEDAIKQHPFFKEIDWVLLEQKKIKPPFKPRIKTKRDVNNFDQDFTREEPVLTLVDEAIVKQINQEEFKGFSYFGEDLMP
Sequence of UniProt P45985 (whole entry, looked up): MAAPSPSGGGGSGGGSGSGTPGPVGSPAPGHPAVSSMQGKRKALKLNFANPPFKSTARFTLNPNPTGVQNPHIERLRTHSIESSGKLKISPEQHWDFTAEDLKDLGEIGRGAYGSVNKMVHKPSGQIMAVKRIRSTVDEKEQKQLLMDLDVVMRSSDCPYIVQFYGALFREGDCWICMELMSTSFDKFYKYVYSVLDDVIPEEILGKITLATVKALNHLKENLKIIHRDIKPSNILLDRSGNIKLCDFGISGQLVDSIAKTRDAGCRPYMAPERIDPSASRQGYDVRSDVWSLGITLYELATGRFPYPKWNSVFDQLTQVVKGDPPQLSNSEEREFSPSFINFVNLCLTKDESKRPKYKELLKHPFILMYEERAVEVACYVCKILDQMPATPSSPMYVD

Set 1
Organism: Plasmodium berghei
Mode: inhibitor
Cell line: Huh-7
Strain: liver stage
Tested at: 10 µM
Time: 24 h
Baseline: untreated control
With `O=C(O)CCC(=O)c1ccc(-c2ccccc2)cc1` the infection rate was 112%.
`CC[C@H](C)C(=O)O[C@H]1C[C@@H](C)C=C2C=C[C@H](C)[C@H](CC[C@@H]3C[C@@H](O)CC(=O)O3)[C@H]21` gave an infection rate of 83.4%.
`C[C@@H]1C/C=C/C=C/C=C/C=C/[C@H](O[C@@H]2O[C@H](C)[C@@H](O)[C@H](N)[C@@H]2O)C[C@@H]2O[C@](O)(C[C@@H](O)C[C@H]3O[C@@H]3/C=C/C(=O)O1)C[C@H](O)[C@H]2C(=O)O` has an infection rate of 106%.
`CO/N=C1\CN(c2nc3c(cc2F)c(=O)c(C(=O)O)cn3C2CC2)CC1CN` (stereo not shown) gave an infection rate of 62.5%.
`CC1CC(OC(=O)c2ccccc2O)CC(C)(C)C1` (stereo not shown) has an infection rate of 110%.
`NC(=O)NO` has an infection rate of 116%.
With `COCCCC/C(=N\OCCN)c1ccc(C(F)(F)F)cc1` the infection rate was 109%.
`CCCC(=O)O[C@]1(C(=O)CO)CC[C@H]2[C@@H]3CCC4=CC(=O)CC[C@]4(C)[C@H]3[C@@H](O)C[C@@]21C` has an infection rate of 101%.
For `NNc1nncc2ccccc12`, the infection rate was 105%.
The infection rate of `C[C@H](N)[C@H](O)c1cccc(O)c1` is reported as 86.9%.

Set 2
Target: Sigma non-opioid intracellular receptor 1 (SIGMAR1, Homo sapiens, UniProt Q99720)
Sequence of UniProt Q99720 (whole entry, looked up): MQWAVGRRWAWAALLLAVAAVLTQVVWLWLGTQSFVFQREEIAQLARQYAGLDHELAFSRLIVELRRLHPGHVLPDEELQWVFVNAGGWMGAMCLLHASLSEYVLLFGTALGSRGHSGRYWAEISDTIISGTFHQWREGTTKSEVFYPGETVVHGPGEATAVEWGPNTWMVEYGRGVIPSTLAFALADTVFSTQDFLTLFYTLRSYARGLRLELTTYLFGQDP
Read-out: ligand displacement
Tested at: 10 µM
`CO[C@H]1CC[C@H](CNc2ccc(S(=O)(=O)NC(=O)c3ccc(N4CCN(CC5=C(c6ccc(Cl)cc6)CC(C)(C)CC5)CC4)cc3Oc3cnc4[nH]ccc4c3)cc2[N+](=O)[O-])CC1` has an inhibition of 49.8%.
`CCC(=NO)C(C)=Cc1ccc(F)c(C)c1` gave an inhibition of 86.8%.
`CN1CCN(c2cnc3c(C4CCN(C(=O)c5ccc(OC(F)(F)F)cc5N)CC4)ncnc3c2)CC1` gave an inhibition of 72.4%.
For `O=C(N[C@H]1CCCCC/C=C\C2C[C@@]2(C(=O)O)NC(=O)[C@@H]2C[C@@H](Oc3ccncc3)CN2C1=O)OC1CCCC1` (stereo partly shown), the inhibition was 11.1%.
`CC(=O)N1CCC(c2ccc(C(=O)NC3=NCCN3)cc2C(F)(F)F)CC1` has an inhibition of -8.45%.
With `O=C(NCCCC1CCCCC1)c1ccc(CNC(=O)c2cnn(-c3ccccc3)c2C(F)(F)F)cc1` the inhibition was 20.1%.
For `c1ccc(N2CCN(Cc3nc4ccccc4[nH]3)CC2)nc1`, the inhibition was 58.6%.
`CNC(=N)NCCC[C@H](NC(=O)[C@H](CC(C)C)NC(=O)NNC(=O)[C@H](Cc1ccccc1)NC(=O)[C@H](CO)NC(=O)[C@H](CC(N)=O)NC(=O)[C@@H](Cc1ccncc1)NC(=O)[C@H](N)Cc1ccc(O)cc1)C(=O)N[C@@H](Cc1ccccc1)C(N)=O` has an inhibition of 3.72%.
With `CCC(F)(F)c1cc(N2CCC(S(C)(=O)=O)CC2)nc2sc(C(N)=O)c(N)c12` the inhibition was 8.89%.
`CS(=O)(=O)N1CCCC(NC(=O)[C@H](CCC2CCCCC2)NC(=O)c2ccc(CNC(=O)c3cnc4ccccn34)cc2)C1` (stereo partly shown) has an inhibition of 32%.
With `CC1CCN(c2ccnc(NCc3cn(C)cn3)n2)CC1` the inhibition was 36.6%.
`Cc1ccccc1Oc1cc(-n2c(=O)cc(C(F)(F)F)[nH]c2=O)c2ccccc2c1Cl` has an inhibition of 19%.
With `C[C@@H](c1cccc(C#N)c1)n1cc(Cl)cc(C(N)=O)c1=N` the inhibition was 17.4%.
`Cc1cc(Nc2nccc(C)n2)cc(-c2cnc([C@@]3(O)CC[C@H](C(=O)O)C(C)(C)C3)s2)c1` has an inhibition of -22.9%.
The inhibition of `Cn1nc(C(=O)NCc2ccc(C(=O)O)cc2)cc1-c1ccc2[nH]ccc2c1` is reported as 1.99%.
The inhibition of `NS(=O)(=O)c1cc(NC(=O)Cc2ccccc2)ccc1Oc1cccc(Cl)c1` is reported as -8.2%.
For `NC(=O)c1ccc2nc(-c3ccc(C4(N)CCC4)cc3)c(-c3ccccc3)n2n1`, the inhibition was -1.31%.
`O=c1nc(-c2ccccn2)sc2ccccc12` has an inhibition of 14%.
For `CC(=O)Nc1ncc(CN2CCC[C@H](Cc3cc(C)nc(C)c3)C2)s1`, the inhibition was 46.5%.
`CN(C)CC#Cc1ccc(OCCCc2sc(N3CCc4cccc(C(=O)Nc5nc6ccccc6s5)c4C3)nc2C(=O)O)c(F)c1` gave an inhibition of 53.3%.
With `O=S(=O)(NC1CCC(c2cc(F)ccc2F)(S(=O)(=O)c2ccc(Cl)cc2)CC1)C(F)(F)F` (stereo not shown) the inhibition was 36.8%.
The inhibition of `CN([C@@H]1CCc2c(CC(=O)O)c3ccccc3n2C1)S(=O)(=O)c1ccc(F)cc1` is reported as -33.7%.
For `C[C@H](c1ccc(F)cc1)N(Cc1cccc(C(=O)O)c1)C(=O)c1cnc2ccccc2c1`, the inhibition was 16%.
With `Cc1noc([C@H]2C[C@@H](c3ccc(C(F)(F)F)cc3)CN(C(=O)N3CCS(=O)(=O)C3)C2)n1` the inhibition was -18.4%.
`COc1cc(N[C@@H]2CCCC[C@]2(O)C(F)(F)F)ccc1F` has an inhibition of -19.6%.

Set 3
Target: Eukaryotic initiation factor 4A-III (Homo sapiens, UniProt P38919)
Sequence of UniProt P38919 (whole entry, looked up): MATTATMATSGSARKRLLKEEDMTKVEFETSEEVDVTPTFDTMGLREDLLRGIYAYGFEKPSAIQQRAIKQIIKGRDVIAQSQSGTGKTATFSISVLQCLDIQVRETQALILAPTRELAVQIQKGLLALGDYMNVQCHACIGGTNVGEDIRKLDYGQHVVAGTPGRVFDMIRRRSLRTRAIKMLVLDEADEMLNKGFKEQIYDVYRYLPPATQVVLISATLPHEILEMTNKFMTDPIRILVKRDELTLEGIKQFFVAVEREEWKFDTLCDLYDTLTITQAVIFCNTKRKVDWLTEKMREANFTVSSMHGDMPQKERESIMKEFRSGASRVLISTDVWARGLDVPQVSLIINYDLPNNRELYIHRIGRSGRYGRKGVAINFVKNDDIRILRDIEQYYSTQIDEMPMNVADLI
Read-out: RNA clamping
Method: fluorescence polarization
Tested at: concentration not given
Notes: mean of two replicates
Together with: FAM-labelled poly r(AG)8 RNA
`CNCCOc1ccc2c(c1)O[C@@]1(c3ccc(Cl)cc3)[C@H](c3ccccc3)C[C@H](O)[C@@]21O` — result for “fluorescence polarization change”: 109 mP.
`C#CCNC(=O)COc1cc(OC)c2c(c1)O[C@@]1(c3ccc(OC)cc3)[C@H](c3ccccc3)c3c(nc(-c4ccccc4)[nH]c3=O)[C@@]21O`: “fluorescence polarization change” 9.1 mP.
For `COc1ccc([C@@]23Oc4cc(OC)cc(OC)c4[C@]2(O)c2nc(N4CCOCC4)[nH]c(=O)c2[C@H]3c2ccccc2)cc1`, “fluorescence polarization change” read 39 mP and 32.1 mP.
For `COc1ccc([C@@]23Oc4cc(O)cc(OC)c4[C@]2(O)c2nc4n(c(=O)c2[C@H]3c2ccccc2)CCC4)cc1`, “fluorescence polarization change” read 29.8 mP.
Under “fluorescence polarization change”, `COc1ccc([C@@]23Oc4cc(OC)cc(OC)c4[C@@](O)(C2=O)[C@H](C(=O)N(C)OC)[C@H]3c2ccccc2)cc1` is recorded as 4.3 mP.
Under “fluorescence polarization change”, `CCCN[C@@]12C(=O)[C@H](C(=O)N(C)C)[C@@H](c3ccccc3)[C@]1(c1ccc(OC)cc1)Oc1cc(OC)cc(OC)c12` is recorded as 1.2 mP.
`C#CCNC(=O)CCCn1c(-c2ccccc2)nc2c(c1=O)[C@@H](c1ccccc1)[C@]1(c3ccc(OC)cc3)Oc3cc(OC)cc(OC)c3[C@]21O` — result for “fluorescence polarization change”: 8.3 mP.
Under “fluorescence polarization change”, `COc1ccc([C@@]23Oc4cc(OC)cc(OC)c4[C@]2(O)c2nc(C)[nH]c(=O)c2[C@H]3c2ccccc2)cc1` is recorded as 45.1 mP.

Set 4
SMILES: Cc1ccc(NC(=O)c2ccnc(C(F)(F)F)c2)cc1-c1cc(OCCO)nc(N2CCOCC2)c1
Tested at: 1 µM
For PRKAA2 (Homo sapiens, UniProt P54646); competitive binding, scanMAX; AMPK-alpha2, 1000 nM: remaining binding read 100%.
The remaining binding was 100% (RPS6KA4 (Homo sapiens, UniProt O75676); competitive binding scan; N-terminal kinase domain 1).
HASPIN (Homo sapiens, UniProt Q8TF76); competitive binding, DiscoverX scanMAX binding — remaining binding: 100%.
The remaining binding was 99% (MAP2K4 (Homo sapiens, UniProt P45985); competitive binding panel, refers to: MEK4; baseline: vehicle).
For MAP3K15 (Homo sapiens, UniProt Q6ZN16); competitive binding panel; baseline: vehicle: remaining binding read 66%.
For ITK (Homo sapiens, UniProt Q08881); competitive binding panel; baseline: vehicle: remaining binding read 100%.
It gave 100% for remaining binding (ABL1 (Homo sapiens, UniProt P00519, F317L); competitive binding scan).
For PRKCE (Homo sapiens, UniProt Q02156); competitive binding panel; baseline: vehicle: remaining binding read 75%.
ACVR1 (Homo sapiens, UniProt Q04771); competitive binding panel; baseline: vehicle — remaining binding: 100%.

A few entries again (set 2):
For `c1ccc(N2CCN(Cc3nc4ccccc4[nH]3)CC2)nc1`, the inhibition was 58.6%.
`CNC(=N)NCCC[C@H](NC(=O)[C@H](CC(C)C)NC(=O)NNC(=O)[C@H](Cc1ccccc1)NC(=O)[C@H](CO)NC(=O)[C@H](CC(N)=O)NC(=O)[C@@H](Cc1ccncc1)NC(=O)[C@H](N)Cc1ccc(O)cc1)C(=O)N[C@@H](Cc1ccccc1)C(N)=O` has an inhibition of 3.72%.
With `CCC(F)(F)c1cc(N2CCC(S(C)(=O)=O)CC2)nc2sc(C(N)=O)c(N)c12` the inhibition was 8.89%.
`CS(=O)(=O)N1CCCC(NC(=O)[C@H](CCC2CCCCC2)NC(=O)c2ccc(CNC(=O)c3cnc4ccccn34)cc2)C1` (stereo partly shown) has an inhibition of 32%.
With `CC1CCN(c2ccnc(NCc3cn(C)cn3)n2)CC1` the inhibition was 36.6%.
`Cc1ccccc1Oc1cc(-n2c(=O)cc(C(F)(F)F)[nH]c2=O)c2ccccc2c1Cl` has an inhibition of 19%.
